Results gathered from unrelated publications.
Compare with care: the assays were run in different laboratories. ± gives the spread as reported.
Chain of UniProt O75385 (whole entry, looked up): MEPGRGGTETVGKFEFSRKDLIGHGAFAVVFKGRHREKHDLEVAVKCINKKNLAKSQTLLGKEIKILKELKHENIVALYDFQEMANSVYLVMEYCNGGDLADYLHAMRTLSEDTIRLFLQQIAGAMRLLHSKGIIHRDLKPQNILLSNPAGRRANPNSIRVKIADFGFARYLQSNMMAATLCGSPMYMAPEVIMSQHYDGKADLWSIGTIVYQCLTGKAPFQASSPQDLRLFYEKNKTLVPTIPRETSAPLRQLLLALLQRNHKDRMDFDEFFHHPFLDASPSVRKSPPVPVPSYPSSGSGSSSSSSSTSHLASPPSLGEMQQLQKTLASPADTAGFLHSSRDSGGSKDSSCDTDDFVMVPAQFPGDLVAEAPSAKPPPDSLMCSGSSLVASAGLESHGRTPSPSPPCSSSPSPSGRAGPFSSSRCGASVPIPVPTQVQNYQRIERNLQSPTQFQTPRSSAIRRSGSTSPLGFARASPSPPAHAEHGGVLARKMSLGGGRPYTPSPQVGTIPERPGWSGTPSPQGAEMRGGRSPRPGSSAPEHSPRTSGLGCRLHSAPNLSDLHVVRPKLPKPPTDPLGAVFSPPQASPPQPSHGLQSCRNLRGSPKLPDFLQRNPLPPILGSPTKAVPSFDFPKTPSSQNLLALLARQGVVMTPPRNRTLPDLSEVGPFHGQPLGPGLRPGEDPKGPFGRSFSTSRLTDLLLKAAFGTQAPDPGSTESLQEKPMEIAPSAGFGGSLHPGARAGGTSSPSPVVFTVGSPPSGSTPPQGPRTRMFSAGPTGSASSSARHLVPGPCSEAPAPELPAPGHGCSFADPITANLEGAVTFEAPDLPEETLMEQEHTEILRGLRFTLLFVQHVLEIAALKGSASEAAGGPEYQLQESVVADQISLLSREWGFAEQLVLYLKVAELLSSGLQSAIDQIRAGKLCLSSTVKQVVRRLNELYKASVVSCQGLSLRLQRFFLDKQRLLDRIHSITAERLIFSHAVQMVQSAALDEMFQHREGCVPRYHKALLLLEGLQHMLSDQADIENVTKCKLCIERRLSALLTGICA

Compound | tested on | assay | test system | setting | how to read | endpoint | result
CCCC[C@H]1C(=O)N(C)[C@@H](CCCC)C(=O)N[C@@H](CCCNC(=O)CN2CCN(CC(=O)O)CCN(CC(=O)O)CCN(CC(=O)O)CC2)C(=O)N[C@H](C(=O)NCC(N)=O)CSCC(=O)N[C@@H](Cc2ccc(O)cc2)C(=O)N(C)[C@@H](C)C(=O)N[C@@H](CC(N)=O)C(=O)N2CCC[C@H]2C(=O)N[C@@H](Cc2c[nH]cn2)C(=O)N[C@@H](CC(C)C)C(=O)N(C)CC(=O)N[C@@H](Cc2c[nH]c3ccccc23)C(=O)N[C@@H](CO)C(=O)N[C@@H](Cc2c[nH]c3ccccc23)C(=O)N1C [gallium-68 labelled] |  |  | NOD/SCID mice with CHO-hPD-L1 xenograft, skin | 30 min post injection |  | tissue uptake | 4 ± 0.62 %ID/g
Cc1nc2cccc(OCC(C)(C)C(=O)NC(C)C)c2c(N)c1C(=O)[O-].[Na+] | Escherichia coli | Ames plate incorporation | WP2 uvrA | 0.32 mg/plate, together with: with rat liver S9 |  | revertant colonies | 39 ± 5 colonies/plate
CN(C)[C@H]1C[C@@]23CC[C@@]4(O2)C(=CC[C@]2(C)[C@@H](c5ccc6ccncc6c5)CC[C@H]24)C=C3[C@@H](O)[C@@H]1O | ULK1 (Homo sapiens, UniProt O75385) | ATP probe labelling, inhibitor, KiNativ profiling |  | 0.1 µM |  | inhibition | 4.9%
Cc1ccccc1-c1ccc(-c2nc(-c3ccc(CN(C)CCCC(=O)O)c([18F])c3)no2)cc1C(F)(F)F |  |  | Sprague Dawley rats, male, pancreas | 60 min |  | tissue uptake | 0.26 ± 0.1 %ID/g
O=C1NC2(CC2)COc2ncc(F)cc2[C@H]2COCCN2c2ccn3ncc1c3n2 |  |  | Sprague-Dawley rat, female, thymus | oral, 5 mg/kg/day, 4 weeks dosing, end of recovery |  | organ-to-body weight ratio | 0.136 ± 0.029%
C[C@H](O)[C@@H](NC(=O)[C@H]1CCCN1C(=O)[C@@H](CCCCN)NC(=O)[C@@H](CO)NC(=O)[C@@H](Cc1ccc(O)cc1)NC(=O)[C@@H](CC(N)=O)NC(=O)CCOCCOCCOCCNC(=O)CN1CCN(CC(=O)O)CCN(CC(=O)O)CCN(CC(=O)O)CC1)C(=O)N[C@H](CC(=O)O)C(=O)N[C@H](CCCNC(=N)N)C(=O)N[C@H](CCC(N)=O)C(=O)N[C@H](Cc1ccc(O)cc1)C(=O)N[C@H](Cc1c[nH]cn1)C(=O)N[C@H](Cc1ccccc1)C(N)=O [gallium-68 labelled] |  |  | BALB/c nude mice U-87 MG tumour, tumor | intravenous, 1.85 MBq, 2 h, radiolabelled |  | tissue uptake | 0.89 ± 0.19 %ID/g
COc1ccccc1-c1n[nH]c2nc(NC3CCN(C(=O)Cc4ccc(F)cc4F)CC3)ncc12 |  | bead binding, competition bead pull-down, refers to: LMJF.27.1300 | Leishmania donovani axenic amastigote extract | 10 µM | relative to: vehicle | relative abundance | 0.87
CCOP(=O)([O-])CNC(=O)CN1CCN(CC(=O)NCP(=O)([O-])OCC)CCN(CC(=O)NCP(=O)([O-])OCC)CCN(CC(=O)NCP(=O)([O-])OCC)CC1.[177Lu+3] |  |  | Sprague-Dawley rat, muscle | intravenous (tail vein), dose not given, 2 h |  | tissue uptake | 0.007 ± 0.003 % injected dose/g
CC(C)C[C@@H](NC(=O)[C@@H](CCCNC(=N)N)NC(=O)[C@@H](Cc1c[nH]cn1)NC(=O)[C@@H](Cc1c[nH]c2ccccc12)NC(=O)[C@@H](Cc1c[nH]cn1)NC(=O)[C@@H](Cc1ccccc1)NC(=O)[C@H](NC(=O)[C@@H](Cc1ccc(O)cc1)NC(=O)CNC(=O)CNC(=O)CCOCCOCCOCCNC(=O)CN1CCN(CC(=O)O)CCN(CC(=O)O)CC1)[C@H](C)O)C(=O)N[C@H](CC(N)=O)C(=O)N1CCC[C@@H]1C(=O)O [gallium-68 labelled] |  | gamma counting | C57BL/6 mice, male, intestines | intravenous, 1.85 MBq, 30 min |  | tissue uptake | 1.15 ± 0.38 %ID/g
CN1Cc2cc(Cl)ccc2-n2c(nnc2C2CCN(c3cccc([18F])n3)CC2)C1 |  |  | C57BL/6 mouse male, pancreas | intravenous, 3.7 MBq, 15 min |  | tissue uptake | 6.86 ± 1.37 %ID/g
CC[C@H](C)[C@H](NC(=O)[C@H](CCCNC(=N)N)NC(=O)[C@H](CCCCN)NC(=O)[C@H](Cc1ccc(O)cc1)NC(=O)[C@H](CC(=O)O)NC(=O)[C@H](C)NC(=O)CNC(=O)CCOCCOCCOCCNC(=O)CN1CCN(CC(=O)O)CCN(CC(=O)O)CCN(CC(=O)O)CC1)C(=O)N[C@H](C(=O)N[C@H](C(=O)N[C@@H](CCCCN)C(=O)N[C@H](C(=O)N[C@@H](CC(N)=O)C(N)=O)C(C)C)C(C)C)[C@@H](C)O [copper-64 labelled] |  | ex vivo gamma counting | C57BL/6J male mice, B16-F10 tumour, stomach | intravenous, 1.85 MBq, 100 min |  | tissue uptake | 1.8 ± 0.059 %ID/g
CSCC[C@H](NC(=O)CNC(=O)[C@H](CCCCN)NC(=O)[C@H](CC(C)C)NC(=O)[C@@H]1CCCN1C(=O)[C@H](CO)NC(=O)[C@H](Cc1c[nH]cn1)NC(=O)[C@H](Cc1c[nH]c2ccccc12)NC(=O)[C@H](CCCNC(=N)N)NC(=O)[C@H](CC(C)C)NC(=O)[C@H](CCCNC(=N)N)NC(=O)[C@H](Cc1c[nH]c2ccccc12)NC(=O)[C@H](CS)NC(=O)CCCCCNC(=O)CN1CCN(CC(=O)O)CCN(CC(=O)O)CCN(CC(=O)O)CC1)C(=O)O [copper-64 labelled] |  | PET imaging | BALB/c nude mice, liver | intravenous, dose not given, 4 h, Huh-7 tumour-bearing |  | tissue uptake | 7.91 ± 0.9 %ID/g
CC[C@H](C)[C@H](NC(=O)[C@H](CCCCN)NC(=O)CNC(=O)[C@H](CC(C)C)NC(=O)[C@H](Cc1ccccc1)NC(=O)[C@H](CCCCN)NC(=O)[C@H](CO)NC(=O)[C@H](Cc1ccccc1)NC(=O)[C@H](Cc1c[nH]c2ccccc12)NC(=O)[C@H](CCC(N)=O)NC(=O)[C@@H](NC(=O)[C@H](Cc1ccccc1)NC(=O)CCCCCNC(=O)CN1CCN(CC(=O)O)CCN(CC(=O)O)CCN(CC(=O)O)CC1)C(C)C)C(=O)N[C@@H](CCC(=O)O)C(=O)N1CCC[C@H]1C(=O)N[C@@H](CC(=O)O)C(=O)N[C@H](C(=O)N[C@@H](CO)C(=O)N[C@@H](CCC(N)=O)C(=O)N[C@H](C(=O)N[C@@H](CCC(N)=O)C(=O)N[C@@H](CC(=O)O)C(=O)N1CCC[C@H]1C(=O)N[C@@H](CC(N)=O)C(=O)N[C@@H](CC(=O)O)C(=O)N[C@@H](CCC(N)=O)C(=O)N[C@@H](Cc1ccc(O)cc1)C(=O)N[C@@H](CCC(=O)O)C(=O)N1CCC[C@H]1C(=O)N[C@@H](Cc1ccccc1)C(=O)O)C(C)C)C(C)C [copper-64 labelled] |  |  | BALB/c mice, male, CT26 tumour-bearing, muscle | 2 h, vehicle-treated |  | tissue uptake | 0.39 ± 0.1 %ID/g

Some of these lines once more:
Compound | tested on | assay | test system | setting | how to read | endpoint | result
Cc1nc2cccc(OCC(C)(C)C(=O)NC(C)C)c2c(N)c1C(=O)[O-].[Na+] | Escherichia coli | Ames plate incorporation | WP2 uvrA | 0.32 mg/plate, together with: with rat liver S9 |  | revertant colonies | 39 ± 5 colonies/plate
CN(C)[C@H]1C[C@@]23CC[C@@]4(O2)C(=CC[C@]2(C)[C@@H](c5ccc6ccncc6c5)CC[C@H]24)C=C3[C@@H](O)[C@@H]1O | ULK1 (Homo sapiens, UniProt O75385) | ATP probe labelling, inhibitor, KiNativ profiling |  | 0.1 µM |  | inhibition | 4.9%
